Measurements gathered from unrelated publications.
Every numbered part comes from another study and shows a few of its results, in no order.

Set 1
Target: Sal-like protein 4, full length isoform B (SALL4, Homo sapiens, UniProt Q9UJQ4-2, residues 1-616)
Method: universal PBM
Form: double-stranded DNA, one strand shown
Medium: in vitro
Concentration: not given
Notes: 8-mer, flanks averaged, mean of replicates
Direction: higher = stronger binding
Construct (chain): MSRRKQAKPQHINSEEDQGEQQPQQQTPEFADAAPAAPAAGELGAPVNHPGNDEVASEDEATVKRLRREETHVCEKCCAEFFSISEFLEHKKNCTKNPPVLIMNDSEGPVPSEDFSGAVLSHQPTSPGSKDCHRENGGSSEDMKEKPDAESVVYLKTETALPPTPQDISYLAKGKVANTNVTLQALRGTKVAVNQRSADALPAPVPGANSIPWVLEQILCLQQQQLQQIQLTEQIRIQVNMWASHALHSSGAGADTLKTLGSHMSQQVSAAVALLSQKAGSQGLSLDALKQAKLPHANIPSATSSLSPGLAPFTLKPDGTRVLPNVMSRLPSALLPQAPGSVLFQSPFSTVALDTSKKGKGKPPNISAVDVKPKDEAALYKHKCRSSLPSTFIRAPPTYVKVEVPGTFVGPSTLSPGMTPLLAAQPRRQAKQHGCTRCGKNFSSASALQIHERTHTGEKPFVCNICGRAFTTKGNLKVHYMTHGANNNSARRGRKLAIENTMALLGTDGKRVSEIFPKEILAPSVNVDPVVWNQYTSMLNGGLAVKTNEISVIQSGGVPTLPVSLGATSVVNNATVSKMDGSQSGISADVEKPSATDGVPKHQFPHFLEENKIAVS
Oligonucleotide	E-score
CCAGCTGA	-0.145
ATTCCGCA	-0.0644
ACGACTGA	-0.11
CCCTTCGG	-0.366
GGAAATAC	0.139
CTCCGTTA	0.0888
AGATCGCG	-0.214
CACGATGA	0.0834
CCGTTACC	-0.0112
ATTCGCCA	-0.0418
ATGCCTTG	-0.0315
GTGCTTCA	0.0334
CCCTATGA	-0.0092
ACTAATAC	0.185
GATGGTCA	-0.0782
CGTCGTAC	0.00321
CGGCAGAG	-0.347
CTGTTTAC	0.208
TAGGGCAA	-0.0292
AGATAGCC	-0.142
CGCCTAGA	-0.0907
ATGTTGGC	-0.00996
CATCTTCC	0.083
ATCACCTA	-0.0538
ACGAGTGA	-0.172

Set 2
Target: RING finger protein unkempt homolog, zinc fingers 1-6, GST-SBP tag (UNK, Homo sapiens, UniProt Q9C0B0, residues 30-357)
Sequence of UniProt Q9C0B0 (30-357, looked up): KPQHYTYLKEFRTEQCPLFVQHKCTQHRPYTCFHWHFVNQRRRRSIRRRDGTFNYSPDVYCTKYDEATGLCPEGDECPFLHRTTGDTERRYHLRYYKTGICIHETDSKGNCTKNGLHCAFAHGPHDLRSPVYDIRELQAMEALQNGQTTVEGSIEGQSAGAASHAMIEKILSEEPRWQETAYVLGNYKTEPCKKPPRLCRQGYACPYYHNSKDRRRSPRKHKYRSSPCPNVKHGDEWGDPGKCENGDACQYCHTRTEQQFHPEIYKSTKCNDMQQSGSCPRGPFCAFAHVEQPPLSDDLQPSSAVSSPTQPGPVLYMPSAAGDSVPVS
Method: RNA Bind-n-Seq
Form: RNA
Medium: in vitro
Concentration: not given
Notes: RNA with constant flanks, human and mouse sites, ends assumed
Relative to: input RNA pool
Direction: higher = stronger binding
Constant ends, left off below: GGGAGUUCUACAGUCCGACGAUC … CAACAGAGGAUUGAGCAUCA
Oligonucleotide	bound/input enrichment
AGCAAAGAUGCCAAGGUUCCUUCUCCUCCUCCAGGACAUAAGUGGAAAGAAGUCCGGCAUGAUAACAAGGUUACUUGGCUGGUUUCCUGGACAGAGAACAUCCAAGGUUCCAUUAAAUAC	0.0629 ratio
UUCUGGCACUGUGUUUAUUAUCUAUGAUUAAAUAAAGUGAGUUUUUGGUUUUGUUUUUUUAAUUUCAGCCAUUCCUAGAGUUACUGAAUAUCCAUGGAGAUCUCAAUUCUCUGUGUCCAA	1.02 ratio
AGAAAGUGAGCCUGUUGAUGUCUAGCUAACCCAUUGGUGGAGUCUGCAUUGAAUCUGUAAGAAUAUUGUUCUGGAUCAUGCAGGUGGGAUUUGUAUAAAAAGCCUGUCCAACAUUUAGUU	0.423 ratio
AGGACCCCCGGGAGCCGGGCUCGGAGCAGACGAGGUAUCCGGCGGCGCCCAUUUGGGGGCUUCUAACUCUUUCUCCACGCAGCCCCUCUUCUGUCCCCUCCCCUCUCGCUCCCUUUUAAA	0.309 ratio
AAGAUCUUUAAUGUUGCCAUUCCCCGAUUCCAUAUGGCAUGUCCAACAUUCAGGGUGUCUAUAGCCCGAUUGGAAAUGGGUCCUGAUGAAUAUGAAGAGAUGGAAGAAGAGGAGGAGGAG	0.195 ratio
GAGGAAGUUCACGAUCUUGAAAGGAAGUAUGCUGUUCUCUAUCAGCCUCUAUUUGAUAAGCGAUUUGAAAUUAUUAAUGCAAUUUAUGAACCUACGGAAGAAGAAUGUGAAUGGAAACCA	0.485 ratio
CUCUAGAGGAGGCCUCUAGGUCGCCAUGGCAACUGGGCAGAAGUUGAUGAGGGCUAUUCGAGUGUUUGAGUUUGGUGGACCAGAAGUGCUGAAGCUCCAGUCGGAUGUGGUCGUGCCUGU	0.257 ratio
AUUCCAUAUUUAUUACGACUGAGACAAAUUAAGGAUGAAACUCUUCAGGCUGCAGUUAGAGAAAUUUUGGCCCUAAUUGGCUAUGUGGAUCCAGUGAAAGGGAGAGGAAUCCGAAUUCUC	0.626 ratio

Set 3
Target: Histone acetyltransferase KAT6A, both winged helices, GST fusion (KAT6A, Homo sapiens, UniProt Q92794, residues 1-181)
Method: protein binding microarray
Form: double-stranded DNA, one strand shown
Medium: in vitro
Concentration: not given
Notes: 8-mer, flanks averaged, mean of 2 arrays, mostly near background
Relative to: not given
Direction: higher = stronger binding
Target sequence (chain): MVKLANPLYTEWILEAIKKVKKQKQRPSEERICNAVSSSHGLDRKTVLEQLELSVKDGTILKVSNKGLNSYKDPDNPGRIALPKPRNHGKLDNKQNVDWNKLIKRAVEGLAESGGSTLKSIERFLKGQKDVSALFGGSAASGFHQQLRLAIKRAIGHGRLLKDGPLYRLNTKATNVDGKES
Oligonucleotide	E-score
GGACTCCC	-0.0479
ACGTATAA	0.141
CCGTTTAC	0.233
AACGTCGG	0.135
CGTTATGA	0.0701
CGAAAGCA	-0.0852
GATTTGCA	-0.125
CCGGCAAG	0.251
GAGCTCCC	-0.0722
AAGTGCCT	-0.255
GCGTATAC	0.197
CTACTATC	0.0181
ACGGGAAA	0.254
GCTCCAGA	0.0201
CGCCGGGA	0.299
CGTGACCA	-0.00985
AACTGTAA	0.0478
ATGTCATG	0.0154
CGGACGAC	0.251
AGACACAT	-0.187
ATCCTGGA	-0.246
TCCAGGCA	-0.132
ATCCGAGC	0.0909
TCGTGACA	-0.0136
CCCATCCA	-0.159

Set 4
Target: RNA binding protein fox-1 homolog 2, RRM domain, GST-SBP tag (RBFOX2, Homo sapiens, UniProt O43251-10, residues 100-194)
Method: RNA Bind-n-Seq
Form: RNA
Medium: in vitro
Concentration: 365 nM
Notes: natural RNA segment, single round, ends assumed
Relative to: no-protein control
Direction: higher = stronger binding
Constant ends, left off below: GGGAGUUCUACAGUCCGACGAUC … UGGAAUUCUCGGGUGCCAA
Oligonucleotide	RBNS enrichment (R)
GUUCGUUUCCAUCAUGUCUGUAUACUCCUGUCACCUAGAACGUGCAUCCUUGUAAUACCUGAUUGAUCACACAGUGUUAGUGCUGGUCAGAGAGACCUCAUCCUGCUCUU	0.427
CACUGUGCACUGCUUGUGAGAAAAUGGAUUAAAAACUAUUCUUACAUUUGUUUUGCCUUUCCUCCUAUUUUUUUUUAACCUGUUAAACUCUAAAGCCAUAGCUUUUGUUU	0.603
UUCCUUGUAAUGAGUAGGUUUGGAUUUAAGAGCCGAUUAGAGGCUACUUCCUGUAAACAAGUACAGGAAAAUGAAACUAGACGGGUGGGGGACACUAGAAUGAAAACCAG	0.899
UUCCUUUACUCAAGGGUUUGGGGAGCAGCCCACAGGAGCGCUGCCUCCAUUUGACAUGCCUUCGGGGGCUCUGCUGGCUGCACCCCAGUUUGAGAUGCUCCAGAAUCCAC	1.49
AUGGGACUUUAAAAGUAAUUGAGGAGAAAGAACCGUGAUGUUCCCUGUUUCUCCAGUAAAGGACUGGCUUUUGCUUGGGCAGAGGUGGUGCUGCUGGGUGUGCAGCUGCC	0.94
AUACGCACCGGGCCAGGACCUGGAGCUGGGCUGCCACUAUGAUAAUGCCGAGCUCACCCUCAAUGUGGCCUUGGGCAAGGUCUUCACAGGGGGCGCCCUGUAUUUUGGGG	0.365
AUAUAGAAAGAAAGACAAUAAGAACACGAGAAACGCCCCCCCCCACCCCCCGGCAUCCUGGAGAGCAUGAGCUGUUUCCAAAAUCGGAUUCUCAGCUGUCACUGUUUCUU	0.877
UAAACAAUCUAAUUAAAUGGCAUCAGCACUUUAACCAAUGACGUUUGCAUAGAGAGAAAUGAUUGACAGUAAGUUUAUUGUUAAUGGUUCUUACAGAGUAUCUUUAAAAG	0.431

Set 5
Target: human cyclin B2
Effect on: peptide binding
Method: yeast competitive growth sequencing
Form: peptide
Organism: Saccharomyces cerevisiae
Strain: cyclin B2-Cln2 fusion
Concentration: concentration not given
Notes: library 1
Direction: direction not given
Sequence	binding enrichment score
GSPLAKAFTSTGL	0.363
GSALKKLFTSTGL	-1.04
GAPLKKLFTSTGL	-1.17

Single results of other studies
Molecule	target	assay	test system	conditions	scale	endpoint	value
PhoQ, residues 284 288 289 292 302 303 SLSVQF	PhoP, residues 12 14 15 18 19 VHSCL (Escherichia coli, UniProt P23836)	Sort-seq, item: YFP reporter	E. coli	PhoQ-PhoP variant library, added: 10 µM Mg2+	relative to: high Mg2+ state, higher = stronger signaling	fold induction	5.09

Excerpt of the above (set 3):
Oligonucleotide	E-score
GCTCCAGA	0.0201
CGCCGGGA	0.299
CGTGACCA	-0.00985
AACTGTAA	0.0478
ATGTCATG	0.0154
CGGACGAC	0.251
